Experimental data of several laboratories.
Numbered parts are unrelated; each lists some results of a single study.

Sample 1 — technique: protein-binding microarray; form: double-stranded DNA, one strand shown; sample: in vitro; tested at: 2540 nM top; notes: 60-bp whole probe; together with: salmon DNA 0.4 mg/ml; relative to: random background probes; reading: higher = stronger binding; all sequences stand within: GCCTAGCAC … GTCTTGATTCGCTTGACGCTGCTG
Target: Interferon regulatory factor 3, full length, phosphomimetic (IRF3, Homo sapiens, UniProt Q14653, residues 1-427, S386D/S396D/S398D/S402D/T404D/S405D)
Construct (chain): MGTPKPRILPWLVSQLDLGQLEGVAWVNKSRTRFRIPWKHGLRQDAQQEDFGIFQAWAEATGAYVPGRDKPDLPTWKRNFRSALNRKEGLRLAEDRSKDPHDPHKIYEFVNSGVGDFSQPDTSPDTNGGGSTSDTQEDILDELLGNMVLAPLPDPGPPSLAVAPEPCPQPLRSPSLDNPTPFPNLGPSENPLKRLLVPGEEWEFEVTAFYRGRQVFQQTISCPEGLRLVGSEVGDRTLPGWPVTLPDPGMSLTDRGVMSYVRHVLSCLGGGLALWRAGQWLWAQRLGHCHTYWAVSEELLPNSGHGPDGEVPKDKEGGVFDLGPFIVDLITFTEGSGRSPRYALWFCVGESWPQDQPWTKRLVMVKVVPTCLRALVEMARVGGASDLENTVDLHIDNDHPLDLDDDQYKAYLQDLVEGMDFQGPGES
Oligonucleotide	fitted relative affinity [z-score]
GACGATTTCGGGACTGGGGACGTGCTA	1.81
TTAGGACTGGAATTTCGGTTAGTGCTA	0.648
GACGGTCTCCTACTGCTCACGTGCTAG	0.991
GACGCTATCCTTATCCTGACGTGCTAG	2.38
TTAGGACTGGACTATCAGTTAGTGCTA	-0.337
TTCGGTTTCGGTTTCGGTTAGTGCTAG	12.4

Sample 2 — technique: universal PBM; form: double-stranded DNA, one strand shown; sample: in vitro; tested at: 600 nM; reading: higher = stronger binding
Target: Sal-like protein 4, full length isoform A (SALL4, Homo sapiens, UniProt Q9UJQ4, residues 1-1053)
Sequence of UniProt Q9UJQ4 (whole entry, looked up): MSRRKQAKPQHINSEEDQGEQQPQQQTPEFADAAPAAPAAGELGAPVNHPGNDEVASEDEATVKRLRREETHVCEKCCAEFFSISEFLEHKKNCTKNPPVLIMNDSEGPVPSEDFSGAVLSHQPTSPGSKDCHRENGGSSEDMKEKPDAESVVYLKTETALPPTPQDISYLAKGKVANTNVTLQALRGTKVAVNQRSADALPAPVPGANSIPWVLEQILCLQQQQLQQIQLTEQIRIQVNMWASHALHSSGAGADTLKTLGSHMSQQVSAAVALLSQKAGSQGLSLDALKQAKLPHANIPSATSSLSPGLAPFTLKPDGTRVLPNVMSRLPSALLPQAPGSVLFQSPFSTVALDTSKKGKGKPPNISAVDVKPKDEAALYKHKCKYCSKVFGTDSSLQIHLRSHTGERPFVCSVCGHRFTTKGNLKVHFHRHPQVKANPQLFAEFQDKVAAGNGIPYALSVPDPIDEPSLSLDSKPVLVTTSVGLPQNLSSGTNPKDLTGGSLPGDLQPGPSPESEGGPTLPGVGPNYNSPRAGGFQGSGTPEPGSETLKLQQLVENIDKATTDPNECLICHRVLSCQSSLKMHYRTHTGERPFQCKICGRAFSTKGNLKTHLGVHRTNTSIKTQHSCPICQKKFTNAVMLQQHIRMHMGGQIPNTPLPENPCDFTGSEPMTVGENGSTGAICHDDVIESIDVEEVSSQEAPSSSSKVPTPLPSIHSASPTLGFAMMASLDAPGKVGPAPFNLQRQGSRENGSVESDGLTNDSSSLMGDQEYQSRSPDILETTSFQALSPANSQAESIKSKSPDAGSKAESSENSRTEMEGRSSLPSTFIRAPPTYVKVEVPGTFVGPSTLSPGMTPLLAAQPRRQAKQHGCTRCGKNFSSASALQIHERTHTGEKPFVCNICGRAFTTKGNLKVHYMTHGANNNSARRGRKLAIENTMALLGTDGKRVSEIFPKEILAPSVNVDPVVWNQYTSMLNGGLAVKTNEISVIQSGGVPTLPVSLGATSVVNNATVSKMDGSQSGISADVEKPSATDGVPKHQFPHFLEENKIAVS
Notes: 8-mer, flanks averaged, mean of replicates
Oligonucleotide	E-score
CGTGGAGC	-0.125
CTCGATAC	0.201
CGACGACG	-0.131
GTGCAAAA	0.15
CACATGCC	-0.11
AGATATGG	0.216
GAGTTGCC	-0.242
AGCGGGAT	-0.211

Sample 3 — technique: protein binding microarray; form: double-stranded DNA, one strand shown; sample: in vitro; tested at: not given; relative to: not given; reading: higher = stronger binding
Target: Histone acetyltransferase KAT6A, winged helix 2, GST fusion (KAT6A, Homo sapiens, UniProt Q92794, residues 85-181)
Notes: 8-mer, flanks averaged, mean of 2 arrays, mostly near background
Residues (chain): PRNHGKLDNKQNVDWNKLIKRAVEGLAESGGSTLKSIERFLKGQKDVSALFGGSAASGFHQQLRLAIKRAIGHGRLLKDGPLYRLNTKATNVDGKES
Oligonucleotide	E-score
CACTTATA	-0.173
AACTTAGG	0.00504
CGTGAAAA	-0.0728
AACGTTAA	-0.0847

Single results of other studies
Substance	target	test	test system	setting	how to read	endpoint	value
PhoQ, residues 284 288 289 292 302 303 WVSSAF	PhoP, residues 12 14 15 18 19 GQAIL (Escherichia coli, UniProt P23836)	Sort-seq, measured: YFP reporter	E. coli	PhoQ-PhoP variant library, together with: 10 µM Mg2+	relative to: high Mg2+ state, higher = stronger signaling	fold induction	5.27
